{"data": "Measured values collected from several papers", "cell line": "A549", "note": "Each line is one published result; not all experiments were run side by side. Numbers after ± are the reported error."}
{"Compound": "COc1ccc([C@@H]2C3CCCN3[C@@]3(c4ccccc4-c4nc5ccccc5nc43)[C@H]2C(=O)c2nc3ccccc3[nH]2)cc1 (stereo partly drawn)", "read-out": "cell growth or viability", "method": "MTT", "time": "72 h", "IC50": "0.146 µM"}
{"Compound": "Cc1cc(C)c(N=[C](NCc2ccc(N)cc2)[AuH][Cl])c(C)c1", "read-out": "cell growth or viability", "IC50": "> 100 µM"}
{"Compound": "Cc1cccc2c1NC(=O)C21C2=C(COC2=O)NC2=C1C(=O)c1ccccc1C2=O (stereo not drawn)", "read-out": "cell growth or viability", "method": "MTT", "time": "72 h", "IC50": "2.28 µM"}
{"Compound": "OC[C@H]1[C@@H](O)[C@@H](O)CN1CCc1ccccc1", "read-out": "cell growth or viability", "method": "MTS", "time": "72 h", "IC50": "> 200 µM"}
{"Compound": "CC1=CC(C)=[N+]2C1=C(CO)c1c(C)cc(C)n1[B-]2(F)F", "read-out": "cell growth or viability", "method": "resazurin", "notes": "dark", "IC50": "> 100 µM"}
{"Compound": "COc1c(C)c(OC(=O)c2ccccc2)c(C)c(OC(=O)c2ccccc2)c1C(=O)/C=C/c1ccccc1", "read-out": "cell growth or viability", "method": "SRB", "time": "72 h", "IC50": "30.9 µM"}
{"Compound": "COc1ccc(/C=C2\\SC(N3N=C(c4ccc(C)cc4)CC3c3ccc(F)cc3)=NC2=O)cc1 (stereo not drawn)", "read-out": "cell growth or viability", "method": "MTT", "IC50": "11.7 µM"}
{"Compound": "NCCNC(=O)c1ccc2[nH]c(/C(=N/Nc3ccc(F)cc3)c3ccc(O)cc3)nc2c1", "read-out": "cell growth or viability", "method": "ATP luminescence", "time": "72 h", "IC50": "103 µM"}
{"Compound": "C=C1C(=O)C23CCC4C(C)(C)CCCC4(C)C2C(O)CC1C3 (single isomer, unassigned)", "read-out": "cell growth or viability", "method": "MTT", "IC50": "3.8 µM"}
{"Compound": "COc1ccc2cc([C@H](C)C(=O)[O][Pt]([NH2])([NH2])([Cl])([Cl])[O]C(=O)[C@@H](C)c3ccc4cc(OC)ccc4c3)ccc2c1", "read-out": "cell growth", "method": "MTT", "time": "48 h", "IC50": "0.14 ± 0.04 µM"}
{"Compound": "N#Cc1cccc(-c2ccc(=O)n(Cc3cccc(-c4ncc(OCC5CCN(CCCCCCCCC(=O)Nc6cccc7c6C(=O)N(C6CCC(=O)NC6=O)C7=O)CC5)cn4)c3)n2)c1 (stereo not drawn)", "read-out": "cell growth or viability", "method": "CCK-8", "time": "72 h", "IC50": "45.6 µM"}
{"Compound": "CC(=O)O[C@@H]1CC[C@@]2(C)[C@@H](CC[C@]3(C)[C@@H]2C(=O)C=C2[C@@H]4[C@@H](C)[C@H](C)CC[C@]4(C)CC[C@]23C)[C@@]1(C)C(=O)NCCNC(=O)CCBr", "read-out": "cell growth or viability", "method": "MTT", "time": "48 h", "IC50": "26.8 µM"}
{"Compound": "COc1ccc(/N=N/C(=S)N2CCCC2)cc1", "read-out": "cell growth or viability", "method": "resazurin", "time": "48 h", "IC50": "> 50 µM"}
{"Compound": "COCC12CCC(OC)C34C5CC6(O)C(OC)C(=O)C(C5C6O)C(C(OC)C13)C4N(C)C2 (stereo not drawn)", "read-out": "cell growth or viability", "method": "MTT", "IC50": "19.4 µM"}
{"Compound": "CCCC(CCC)C(=O)[O][Pt]1([OH])[O]C(=O)C(=O)[O]1.NC1CCCCC1N", "read-out": "cell growth or viability", "IC50": "60.3 µM"}
{"Compound": "Cc1cc(/C=C/c2ccc(O)c(O)c2)[nH]n1", "read-out": "cell growth or viability", "method": "MTT", "time": "48 h", "IC50": "> 100 µM"}
{"Compound": "C=C(C)[C@@H]1CC[C@]2(COC(=O)CCC(=O)O)CC[C@]3(C)[C@H](CC[C@@H]4[C@@]5(C)CC[C@H](OC(=O)CCC(=O)O)C(C)(C)[C@@H]5CC[C@]43C)[C@@H]12", "read-out": "cell growth or viability", "method": "SRB", "time": "72 h", "IC50": "7.09 µg/mL"}
{"Compound": "Cc1ccc(C(C)C)cc1.N=C(N)Nc1nc2ccccc2s1.[Cl-].[Cl][Ru+]", "read-out": "cell growth or viability", "method": "MTT", "time": "24 h", "IC50": "112 µM"}
{"Compound": "S=c1n(-c2ccccc2)c2c3ccccc3nc3[n+]2[n]1[Ir-3]12([S]3)([c]3cccc4ccc5ccc[n+]1c5c34)[c]1cccc3ccc4ccc[n+]2c4c13", "read-out": "cell viability", "method": "MTT", "notes": "irradiation 450 nm, 15.5 mW/cm^2, 15 min", "IC50": "0.0019 ± 0.0001 µM"}
{"Compound": "CCN1CCC2(CC1)C/C(=N\\NC(=O)Nc1ccc(C)cc1)c1ccccc1O2", "read-out": "cell growth or viability", "method": "MTT", "time": "48 h", "IC50": "11.9 µM"}
{"Compound": "Cc1cc(C)c(N[C](NCc2ccc(N[C](Nc3c(C(C)C)cccc3C(C)C)=[Pd-]([Cl])([Cl])[C]#[N+]c3c(C(C)C)cccc3C(C)C)cc2)=[Au][Cl])c(C)c1", "read-out": "cell growth or viability", "IC50": "23 µM"}
{"Compound": "Brc1ccc(Nc2nc(NN=Cc3c[nH]c4ccccc34)nc(-n3ccnc3)n2)cc1", "read-out": "cell growth", "method": "SRB", "time": "120 h", "IC50": "1.2 ± 0.01 µM"}
{"Compound": "COC(=O)[C@@H](NC(=O)[C@@H](NC(=O)[C@@H](NC(=O)OC(C)(C)C)C(C)C)C(C)C)C(C)C", "read-out": "cell growth or viability", "method": "SRB", "IC50": "1 µM"}
{"Compound": "C[C@H]1[C@H](C)CC[C@]2(C)CC[C@]3(C)C(=CC(=O)[C@@H]4[C@@]5(C)CC[C@@H](O)[C@](C)(C(=O)NCCNC(=O)C6CC6)[C@@H]5CC[C@]43C)[C@H]12", "read-out": "cell growth or viability", "method": "MTT", "time": "48 h", "IC50": "14 µM"}
{"Compound": "COc1ccccc1/C=C1\\SC(=O)N(CC(=O)Nc2ccc(C(=O)Nc3ccc([N+](=O)[O-])cc3)cc2)C1=O", "read-out": "cell growth or viability", "method": "MTT", "IC50": "10.9 µM"}
{"Compound": "C#Cc1cccc(Nc2ncnc3cc(OCCOC)c(OCCOC)cc23)c1", "read-out": "cell growth or viability", "method": "trypan blue", "IC50": "> 20 µM"}
{"Compound": "Oc1ccccc1-c1nn(-c2ccccn2)[n+](-c2ccccc2)n1", "read-out": "cell growth", "method": "resazurin", "IC50": "28 ± 4 µM"}
{"Compound": "COc1cc(N(C)CCN(C)C)c(NC(=O)/C=C/c2ccc3ccccc3c2)cc1Nc1nccc(-c2cn(C)c3ccccc23)n1", "read-out": "cell growth or viability", "method": "MTT", "time": "72 h", "IC50": "0.115 µM"}
{"Compound": "CC(=O)O[C@H]1C[C@H]([C@H](C)CCC=C(C)C)[C@@]2(C)CC=C3C(=CC[C@H]4C(C)(C)[C@@H](O)CC[C@]34C)[C@]12C", "read-out": "cell viability", "method": "MTT", "time": "72 h", "IC50": "inactive"}
{"Compound": "O=C1c2cccc3cccc(c23)C12NC(Cc1ccc(O)cc1)C([N+](=O)[O-])C2c1cccc([N+](=O)[O-])c1 (stereo not drawn)", "read-out": "cell growth or viability", "method": "MTT", "time": "48 h", "IC50": "65.4 µM"}
{"Compound": "COc1ccccc1C(=O)c1c(-n2c(C(=O)c3ccccc3OC)cc(Cl)c2Cl)c(Cl)c(Cl)n1C", "read-out": "cell growth or viability", "method": "resazurin", "time": "24 h", "IC50": "> 64 µg/mL"}
{"Compound": "C#CCOc1ccc(/C=N\\NC(=O)c2ccncc2)cc1", "read-out": "cell growth or viability", "method": "MTT", "time": "48 h", "IC50": "298 µM"}
{"Compound": "Brc1ccc2nc3c4ccc[n+]5c4c4c(ccc[n+]4[Ru-4]546([n+]5ccccc5-c5cccc[n+]54)[n+]4ccccc4-c4cccc[n+]46)c3nc2c1.[O-][Cl+3]([O-])([O-])O.[O-][Cl+3]([O-])([O-])O", "read-out": "cell growth or viability", "method": "MTT", "time": "72 h", "IC50": "94.1 µM"}
{"Compound": "COc1c(O)cc2oc3cc(O)c(CCC(C)C)c(O)c3c(=O)c2c1CCC(C)C", "read-out": "cell growth or viability", "time": "48 h", "IC50": "14.9 µM"}
{"Compound": "C=CCSc1nc(N)c2c(F)c(C#N)c(F)c(Cl)c2n1", "read-out": "cell growth or viability", "method": "MTT", "time": "96 h", "IC50": "18.8 µM"}
{"Compound": "Cc1ccc2ccc3ccc(C)nc3c2n1.Cc1ccc2ccc3ccc(C)nc3c2n1.Clc1ccc(-c2cc(-c3ccccn3)nn2-c2ccccc2)cc1.[Cl-].[Cl-].[Ru+2]", "read-out": "cell growth or viability", "time": "72 h", "notes": "dark", "IC50": "11.4 µM"}
{"Compound": "C[O][Pt-2]([NH3+])([NH3+])([OH])([Cl])[Cl]", "read-out": "cell growth or viability", "method": "MTT", "time": "96 h", "IC50": "33 µM"}
{"Compound": "COc1ccc(/C=C/C2=[N+]3C(=C(C=O)c4c(C)c(Br)c(/C=C/c5ccc(OC)cc5)n4[B-]3(F)F)C(C)=C2Br)cc1", "read-out": "cell growth or viability", "method": "resazurin", "notes": "dark", "IC50": "> 100 µM"}
{"Compound": "CN(C)CCO/N=C1/C=C2CCC3C(CC[C@]4(C)/C(=C/c5ccccn5)CCC34)[C@@]2(C)CC1 (stereo partly drawn)", "read-out": "cell growth or viability", "method": "MTT", "time": "72 h", "IC50": "82.8 µM"}
{"Compound": "CCn1[c]([Au-]([Cl])([Cl])[Cl])[n+](CC)c2ccc(C(=O)OC)cc21", "read-out": "cell growth or viability", "method": "crystal violet", "time": "72 h", "IC50": "19.3 µM"}
{"Compound": "O=C(Nc1ccc(F)cc1)c1ccccc1-n1c(=O)[nH]c2ccccc2c1=O", "read-out": "cell growth or viability", "method": "MTT", "time": "24 h", "IC50": "21 µM"}
{"Compound": "COc1c(O)c(Br)c2oc3c(Br)c(O)c(CCC(C)C)c(O)c3c(=O)c2c1CCC(C)C", "read-out": "cell growth or viability", "time": "48 h", "IC50": "12 µM"}
{"note": "For quick reference, copied from above:"}
{"Compound": "O=C(Nc1ccc(F)cc1)c1ccccc1-n1c(=O)[nH]c2ccccc2c1=O", "read-out": "cell growth or viability", "method": "MTT", "time": "24 h", "IC50": "21 µM"}
{"Compound": "COc1c(O)c(Br)c2oc3c(Br)c(O)c(CCC(C)C)c(O)c3c(=O)c2c1CCC(C)C", "read-out": "cell growth or viability", "time": "48 h", "IC50": "12 µM"}
